Experimental data of several laboratories.
Parts stem from different laboratories: compare values within a part only. Several values in a cell are separate wells, animals, samples, runs or records. Positions count from the first letter of the parent shown.

Study 1 — target: CCNE2, cyclin fold, Cln2 fusion (human); technique: yeast growth competition, sequencing; sample: yeast; notes: strong parent motif; reference: not given; direction: higher = stronger binding; endpoint: normalised enrichment score
Starting sequence: E2F1 docking peptide (human); PPVKRRLDLETDH
PPKKRRLDLETDH [V3K]: 1.39
PPVKRNLDLETDH [R6N]: 0.677
PPVKRRLDLETDP [H13P]: 1.64
PPVKRRLDLEADH [T11A]: 1.73
PPVKTRLDLETDH [R5T]: 0.048
EPVKRRLDLETDH [P1E]: 0.649
DPVKRRLDLETDH [P1D]: 0.276
PPVKGRLDLETDH [R5G]: -0.323
PPYKRRLDLETDH [V3Y]: 1.25

Study 2 — technique: RNA Bind-n-Seq; form: RNA; sample: in vitro; concentration: not given; reference: input RNA pool; direction: higher = stronger binding; endpoint: bound/input enrichment
Target: RING finger protein unkempt homolog, zinc fingers 1-6, GST-SBP tag (UNK, Homo sapiens, UniProt Q9C0B0, residues 30-357)
Notes: RNA with constant flanks, human and mouse sites, ends assumed
Target sequence (chain): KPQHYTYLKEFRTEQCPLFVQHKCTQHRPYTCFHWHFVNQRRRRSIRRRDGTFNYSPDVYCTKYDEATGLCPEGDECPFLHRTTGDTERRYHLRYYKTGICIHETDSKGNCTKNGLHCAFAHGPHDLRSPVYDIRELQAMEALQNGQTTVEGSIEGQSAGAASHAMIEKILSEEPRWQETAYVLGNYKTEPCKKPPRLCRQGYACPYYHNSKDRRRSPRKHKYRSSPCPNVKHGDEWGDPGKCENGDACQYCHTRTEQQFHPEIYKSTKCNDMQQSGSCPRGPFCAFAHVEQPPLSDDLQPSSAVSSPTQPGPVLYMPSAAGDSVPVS
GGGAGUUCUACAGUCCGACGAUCUCUCCAGAACAUAAAGAACUGUCUAACUCCCCACUCAGGGAGAACAGCUUUGGAUCACCUUUAGAAUUUAGAAACUCAGGCCCACUUGGUACAGAAAUGAAUACUGGAUUUUCUUCUGAGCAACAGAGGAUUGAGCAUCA: 2.42 ratio
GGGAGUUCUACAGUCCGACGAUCACCCCAAAAACCUUAAUUUUCUUUCUUGUUCGGUACCUACAUUGGAACCAUCAAAAACAAUUAUUUCAGUAAACCGUAGCCAUGAGGGAAAUCGUGCACAUCCAGGCCGGACAGUGUGGCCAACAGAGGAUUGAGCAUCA: 0.261 ratio
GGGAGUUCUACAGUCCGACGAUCGAUAAGUUUGAAAAACUUGUGCAGACUGUGAGAGAUUAUCAUGCAACUUGGAAAACUGUUAGUAAUAAAUUAAAAAAUCAUCCUGAUUAUGAAGAAUACAUCAACUUAGAGGGAACAAGACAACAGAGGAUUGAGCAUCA: 14 ratio
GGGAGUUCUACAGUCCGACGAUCGAAAUAAAUGUGGAAGCUAAGCAAGUUAAGGAUAUCAUGAAAACACUCGAGAGCUUCAAACUAGACAUCACUUCUUUGCAAGCUGCACAACAUGAAUUUCCAGCUGCUGAAGGAGAAGUCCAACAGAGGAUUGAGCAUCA: 0.387 ratio
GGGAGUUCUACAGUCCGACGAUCAAUGCAGAACAAAUGAAAGCCUUUUGGAAAUUGUCUAGUAUUUCAGAAAAAUCAGAAAAUGGAGGUUCUGGGUCCCUCCGAGCAAAAUUUGAUCUUUCAGAAGGACCUAGUAAACCCACGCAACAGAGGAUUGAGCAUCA: 0.468 ratio
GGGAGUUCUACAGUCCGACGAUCGCUGCGCAAAUGAAUGGUAAACCAGAAUCCAGUUCUGUGGUUCGAACUAGGAGCAACCGUGUAGCUGUAGAUCCAGUUGUCACCGAGCAGCCCUCUACAUCAUCAGCCACAAAAGCUUUUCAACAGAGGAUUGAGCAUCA: 0.161 ratio
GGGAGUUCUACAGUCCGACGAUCAGACAAGGUGUCAAAACCAUGAGACAAAGGUUAAAUCCAACGUCCAACAAAAGUUCUCGAAAGUUAUUUGAUCAAGCCAACAAGCUUAAAAAAACGUGUGCACACCUUUUUACAGCUACACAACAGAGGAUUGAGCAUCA: 0.12 ratio
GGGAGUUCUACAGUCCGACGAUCAAGAGUCAAGGUGGGGAGCCAACAUACAAUGUGGCUGUCGGCAGAGCUGGUAGAGUCUUGGUCUUUGUAAUGGGAAAAGAAGGGGUCCAUGGAGGCGGAUUGAAUAAGAAGGCAUACUCACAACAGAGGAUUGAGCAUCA: 0.417 ratio
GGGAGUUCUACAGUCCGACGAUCCGCUUCACCUCUAUGACACGAUUGUAUUAUCGGGAUGCCUCUGCCUGUGUUAUUAUGUUUGACGUUACCAAUGCCACUACCUUCAGCAACAGCCAGAGGUGGAAACAGGACCUAGACAGCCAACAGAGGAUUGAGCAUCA: 0.227 ratio
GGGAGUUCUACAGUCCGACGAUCAAGAAGGAAGGAGAGAACUUCAAAGCUCUUUACAGGUCUGGUGUGGCCUUCUAUCAUCUUGGGGACUAUGAUAAAGCUCUCUACUACCUAAAAGAAGCAAGGACCCGACAACCCACAGACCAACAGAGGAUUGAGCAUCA: 0.0738 ratio

Study 3 — technique: RNA Bind-n-Seq; form: RNA; sample: in vitro; concentration: 365 nM; reference: no-protein control; direction: higher = stronger binding; endpoint: RBNS enrichment (R)
Target: RNA binding protein fox-1 homolog 2, RRM domain, GST-SBP tag (RBFOX2, Homo sapiens, UniProt O43251-10, residues 100-194)
Notes: natural RNA segment, single round, ends assumed
Target sequence (chain): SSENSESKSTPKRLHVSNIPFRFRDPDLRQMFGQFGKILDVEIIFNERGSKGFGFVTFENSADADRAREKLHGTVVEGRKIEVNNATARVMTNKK
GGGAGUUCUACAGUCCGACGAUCUGGAGCCACCUGGAAGCCACUCCAAUUUGGUGGCACAGGACAGGUUUCCAAGAUGUCACGAGAAAAGCCCCAGAUGUGUACAGCACUCUAAGCAUUAACAGUCUCCCAGAUGGAAUUCUCGGGUGCCAA: 0.317
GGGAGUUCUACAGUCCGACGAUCGUGAAUUGAGUUCUGCUGGGGCUAUAGAGCAUCGGGUCGGCAGCUGUCAUUCCCAGCUCUGUGACCUACUGCUUGGUACUAAAAAGGAGUUUUCUUCCAAAAGCACUGUUUGGAAUUCUCGGGUGCCAA: 0.574
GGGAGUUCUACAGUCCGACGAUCCUGCUUUUGGUUUUGCUUCUGAUCUUGUGUUCUAAGGUACUCAGUGAAUCCUGGAUUCUGAGUAAGUUCCAGGGUUCUGGCCUUGAAGCCUUGGACUACACACAUUUCAAUGGAAUUCUCGGGUGCCAA: 0.406
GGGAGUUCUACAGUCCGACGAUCGUGGUUUUGAAGUUUGUACUUUCUCUGUGGGUGCCAGUUAAAUAUUGGAGAGCAAGGAAUGUGGACUUGUAUGGCUUUGAACCAAGAGAGGGUUAUGAGCCUACUGGAUUUGGAAUUCUCGGGUGCCAA: 0.865
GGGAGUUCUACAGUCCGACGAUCAGGUACCACUUCAUACAGUGAAAAGUGGAAUCUACAGAUAUAAAGCAGUUGAGGAAAAAAGACAACAUAGGAGUUAUUAAUGUCAAUACCCAUCAACAUAAUCACUCUGAUGGAAUUCUCGGGUGCCAA: 0.43
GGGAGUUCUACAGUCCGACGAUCUCUCUCAGCCUCACCAGUGACAGAGAACAGCUGUGGUUCUCUGCUGGCCUCAGCUGAUCCAUGCUGUCUGACUCCCGGGGAGAGUUAGGAAGAUGCAAGGACCUCUCCUCUGGAAUUCUCGGGUGCCAA: 1.03
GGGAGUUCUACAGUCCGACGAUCCCUUUGGGGACCAGAAGGGGAGAUGUGCUCCCAGAGCCUCUCUGCUGUAAGACCCCAGCUUUUCCUGGAAGAUGGGACUCUGGGGUGUGUGGUGCUCACCAGAGUCAGGCUGGAAUUCUCGGGUGCCAA: 0.359

Mixed results
PhoQ, residues 284 288 289 292 302 303 GASLAW  fold induction (PhoP, residues 12 14 15 18 19 LWHCS (Escherichia coli, UniProt P23836); Sort-seq, item: YFP reporter; E. coli; PhoQ-PhoP variant library, added: 10 µM Mg2+; reference: high Mg2+ state, higher = stronger signaling): 7.58 and 11.2
